Measured values from different studies.
Lines come from different studies, so protocols differ. “And” joins repeats or separate records; there may be more than shown. Numbers after ± are the reported error.

| Compound | assay | system | setting | how to read | measurement | result |
| --- | --- | --- | --- | --- | --- | --- |
| CC(=O)N[C@H](CCCCNC(=O)C(C)F)C(=O)N[C@@H](CS)C(=O)N[C@@H](CS)C(=O)N[C@@H](CCC(=O)O)C(=O)N[C@@H](Cc1c[nH]cn1)C(=O)N[C@H](Cc1ccccc1)C(=O)N[C@@H](CCCNC(=N)N)C(=O)N[C@@H](Cc1c[nH]c2ccccc12)C(=O)N[C@@H](CS)C(=O)N[C@@H](CCCNC(=N)N)C(=O)N1CCC[C@H]1C(=O)N[C@H](C(N)=O)C(C)C (stereo partly drawn) [fluorine-18 labelled] |  | nude mice, A375M xenograft, muscle | intravenous, 2 h |  | tissue uptake | 0.19 ± 0.08 %ID/g |
| Cc1ccc(N)cc1N |  | EpiDerm EPI-200 skin tissue | concentration not given, 48 h protocol, two treatments | reference: solvent control | micronucleated binucleated cells | increased |
| CC(=O)O[C@H]1C(=O)[C@@]2(C)[C@H]([C@H](OC(=O)c3ccccc3)[C@]3(O)C[C@H](OC(=O)[C@H](O)[C@@H](NC(=O)c4ccccc4)c4ccccc4)C(C)=C1C3(C)C)[C@]1(OC(C)=O)CO[C@@H]1C[C@@H]2O |  | BALB/c mouse, serum | intraperitoneal, 10 mg/kg every three days, 60 days |  | uric acid | 90.8 U/L and 247 U/L and 185 U/L |
| NC(=O)c1nc(F)c[nH]c1=O | UV-Vis spectrophotometry | supercritical CO2 | 120 min, 308 K, 15 MPa, 816.06 kg/m^3 |  | solubility | 254 µg/mL |
| CC1N=C(c2ccccc2F)c2cc(Nc3ccc([N+](=O)[O-])cc3)ccc2NC1=O (stereo not drawn) | shake flask | PBS | 24 h, pH 7.4 |  | solubility | < 1 µM |
| CC[C@@]1(O)C(=O)OCc2c1cc1n(c2=O)Cc2cc3c(CN(C)C)c(O)ccc3nc2-1 |  | human patients, plasma | oral, 8 mg weekly, MTD arm, weekly dosing, with: pazopanib | reference: with pazopanib over alone | AUC(0-inf) ratio | 1.62 |
| CC(=O)N[C@H](C(=O)N[C@@H](CO)C(=O)N[C@@H](CCCNC(=N)N)C(=O)N[C@@H](CCCNC(=N)N)C(=O)N[C@@H](CCCNC(=N)N)C(N)=O)C(C)C |  | healthy adults | intravenous infusion, 1 mg/kg every 6 h, over 30 min, minimum among subjects | reference: dose 2 over dose 1 | AUC(tau) accumulation ratio | 0.9 |
| CNC(=O)c1ccc(-c2cnn3ccc(C(=O)N(C)c4ccc(Cl)c(C(=O)OC)c4)cc23)cc1 |  | Wistar rats, both sexes, plasma | oral, 25 mg/kg/dose, 50 mg/kg/day, day 1 |  | Cmax | 0.558 ng/mL |
| CC(=O)c1c(C)c2cnc(Nc3ccc(N4CCNCC4)cn3)nc2n(C2CCCC2)c1=O |  | Japanese patients, advanced solid tumours | once daily 3 weeks on 1 off |  | maximum tolerated dose | 125 mg |
| CCCCCCCCCCCCCCCCCC[N+](C)(C)Cc1ccccc1 | in vitro-in vivo extrapolation | human |  |  | hepatic clearance | 1.06 mL/h/g liver |
| CCN(CC)CCCC(C)Nc1ccnc2cc(Cl)ccc12 (stereo not drawn) |  | male athymic BALB/c nude mice, xenograft, serum | intraperitoneal, 60 mg/kg every other day, 2 weeks, with: sulforaphane 5 mg/kg |  | AST activity | 18.6 ± 2.85 U/L |
| CC[C@H](C)[C@H](NC(=O)[C@@H](N)CCCNC(=N)N)C(=O)N[C@H](C(=O)N1CCC[C@H]1C(=O)N[C@@H](C)C(N)=O)C(C)C |  | healthy volunteers, both sexes, plasma | intravenous infusion, 0.5 mg/kg daily, day 7, multiple ascending dose |  | AUC(0-t) | 89 ± 14 ng·h/mL |

A few entries again:
| Compound | assay | system | setting | how to read | measurement | result |
| --- | --- | --- | --- | --- | --- | --- |
| CC[C@@]1(O)C(=O)OCc2c1cc1n(c2=O)Cc2cc3c(CN(C)C)c(O)ccc3nc2-1 |  | human patients, plasma | oral, 8 mg weekly, MTD arm, weekly dosing, with: pazopanib | reference: with pazopanib over alone | AUC(0-inf) ratio | 1.62 |
